Measured values pooled from the literature.
A part holds a random share of what one study measured. Several values in a cell are separate wells, animals, samples, runs or records. Positions count from the first letter of the parent shown. Numbers after ± are the reported error.
UniProt O15197, sequence (whole entry, looked up): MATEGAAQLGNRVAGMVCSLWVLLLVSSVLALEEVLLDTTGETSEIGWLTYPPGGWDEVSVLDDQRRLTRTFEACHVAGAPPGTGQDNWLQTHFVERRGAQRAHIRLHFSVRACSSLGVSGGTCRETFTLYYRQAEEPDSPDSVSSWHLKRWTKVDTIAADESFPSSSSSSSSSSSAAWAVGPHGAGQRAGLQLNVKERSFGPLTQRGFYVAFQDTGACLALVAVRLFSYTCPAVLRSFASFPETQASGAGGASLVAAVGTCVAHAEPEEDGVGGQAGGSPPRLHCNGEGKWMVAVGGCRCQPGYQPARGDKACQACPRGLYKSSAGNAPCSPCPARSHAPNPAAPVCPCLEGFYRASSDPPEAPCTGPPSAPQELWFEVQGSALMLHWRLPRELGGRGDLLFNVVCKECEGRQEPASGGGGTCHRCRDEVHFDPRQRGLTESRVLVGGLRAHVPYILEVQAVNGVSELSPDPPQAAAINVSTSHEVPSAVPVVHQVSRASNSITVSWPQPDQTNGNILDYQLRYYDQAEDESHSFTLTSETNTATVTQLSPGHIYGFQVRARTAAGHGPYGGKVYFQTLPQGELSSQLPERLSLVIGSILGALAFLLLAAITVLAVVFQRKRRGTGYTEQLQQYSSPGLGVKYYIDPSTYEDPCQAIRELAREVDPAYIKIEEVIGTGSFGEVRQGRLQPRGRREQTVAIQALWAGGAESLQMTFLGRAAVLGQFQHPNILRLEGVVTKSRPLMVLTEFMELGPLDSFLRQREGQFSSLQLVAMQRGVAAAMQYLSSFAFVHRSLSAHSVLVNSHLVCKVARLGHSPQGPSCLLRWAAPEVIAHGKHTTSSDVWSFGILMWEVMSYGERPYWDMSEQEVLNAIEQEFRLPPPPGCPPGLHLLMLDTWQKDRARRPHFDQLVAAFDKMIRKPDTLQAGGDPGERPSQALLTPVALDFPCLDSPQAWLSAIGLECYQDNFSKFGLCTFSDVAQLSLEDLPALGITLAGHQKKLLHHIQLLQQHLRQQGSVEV
UniProt P10398, sequence (whole entry, looked up): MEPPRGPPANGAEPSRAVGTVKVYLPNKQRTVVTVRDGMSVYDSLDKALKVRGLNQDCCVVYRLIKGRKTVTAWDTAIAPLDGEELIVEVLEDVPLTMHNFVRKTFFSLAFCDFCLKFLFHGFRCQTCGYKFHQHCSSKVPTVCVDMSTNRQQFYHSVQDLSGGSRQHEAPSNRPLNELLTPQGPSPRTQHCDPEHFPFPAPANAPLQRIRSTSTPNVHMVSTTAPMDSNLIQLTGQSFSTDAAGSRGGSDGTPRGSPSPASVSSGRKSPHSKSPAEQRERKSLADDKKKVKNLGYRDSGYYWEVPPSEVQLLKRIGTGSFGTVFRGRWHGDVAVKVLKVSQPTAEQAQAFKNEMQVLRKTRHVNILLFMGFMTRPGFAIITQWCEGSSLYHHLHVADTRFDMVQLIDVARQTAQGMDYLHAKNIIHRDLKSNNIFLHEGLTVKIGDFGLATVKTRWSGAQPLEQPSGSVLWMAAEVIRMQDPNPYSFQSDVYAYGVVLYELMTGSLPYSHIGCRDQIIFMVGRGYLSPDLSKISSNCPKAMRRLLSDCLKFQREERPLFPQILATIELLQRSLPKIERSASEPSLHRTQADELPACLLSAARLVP
UniProt Q05940, sequence (whole entry, looked up): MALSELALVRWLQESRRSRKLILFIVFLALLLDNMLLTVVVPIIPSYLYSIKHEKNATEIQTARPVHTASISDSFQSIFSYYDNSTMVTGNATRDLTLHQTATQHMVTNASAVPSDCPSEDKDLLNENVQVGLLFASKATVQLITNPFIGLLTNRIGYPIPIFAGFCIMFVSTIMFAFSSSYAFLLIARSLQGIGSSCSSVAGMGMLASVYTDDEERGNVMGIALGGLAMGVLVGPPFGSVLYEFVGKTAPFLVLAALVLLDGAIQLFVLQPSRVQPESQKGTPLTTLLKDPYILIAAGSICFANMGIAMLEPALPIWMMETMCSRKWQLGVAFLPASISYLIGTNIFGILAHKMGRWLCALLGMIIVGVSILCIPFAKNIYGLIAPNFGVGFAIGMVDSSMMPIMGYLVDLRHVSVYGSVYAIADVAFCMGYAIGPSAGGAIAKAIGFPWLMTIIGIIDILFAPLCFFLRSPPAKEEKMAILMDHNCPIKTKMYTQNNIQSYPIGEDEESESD
UniProt Q9UQM7, sequence (whole entry, looked up): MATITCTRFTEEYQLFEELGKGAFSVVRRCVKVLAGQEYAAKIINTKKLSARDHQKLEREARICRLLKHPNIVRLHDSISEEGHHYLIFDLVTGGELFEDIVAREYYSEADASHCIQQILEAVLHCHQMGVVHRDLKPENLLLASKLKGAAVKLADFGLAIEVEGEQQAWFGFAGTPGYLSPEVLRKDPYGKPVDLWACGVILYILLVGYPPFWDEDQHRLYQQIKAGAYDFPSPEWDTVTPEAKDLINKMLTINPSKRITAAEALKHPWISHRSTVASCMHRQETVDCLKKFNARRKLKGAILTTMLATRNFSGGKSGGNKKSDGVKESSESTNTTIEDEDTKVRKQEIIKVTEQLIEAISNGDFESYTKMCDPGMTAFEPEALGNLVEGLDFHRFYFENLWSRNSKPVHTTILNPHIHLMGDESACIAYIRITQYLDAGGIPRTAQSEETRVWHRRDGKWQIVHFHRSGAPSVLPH

Block 1 — target: CCNF, cyclin fold, Cln2 fusion (human); technique: yeast growth competition, sequencing; sample: yeast; setting: strong parent motif; relative to: not given; direction: higher = stronger binding; starting sequence: viral docking peptide; TSVRRALFTGGSD
Change	normalised enrichment score
G10F	8.62
R5K	5.47
T9I	8.26
A6C	8.67
T9W	8.56
F8S	0.981
G10H	8.21

Block 2 — action: antagonist
Target: Beta-1 adrenergic receptor (ADRB1, Homo sapiens, UniProt P08588)
UniProt P08588, sequence (whole entry, looked up): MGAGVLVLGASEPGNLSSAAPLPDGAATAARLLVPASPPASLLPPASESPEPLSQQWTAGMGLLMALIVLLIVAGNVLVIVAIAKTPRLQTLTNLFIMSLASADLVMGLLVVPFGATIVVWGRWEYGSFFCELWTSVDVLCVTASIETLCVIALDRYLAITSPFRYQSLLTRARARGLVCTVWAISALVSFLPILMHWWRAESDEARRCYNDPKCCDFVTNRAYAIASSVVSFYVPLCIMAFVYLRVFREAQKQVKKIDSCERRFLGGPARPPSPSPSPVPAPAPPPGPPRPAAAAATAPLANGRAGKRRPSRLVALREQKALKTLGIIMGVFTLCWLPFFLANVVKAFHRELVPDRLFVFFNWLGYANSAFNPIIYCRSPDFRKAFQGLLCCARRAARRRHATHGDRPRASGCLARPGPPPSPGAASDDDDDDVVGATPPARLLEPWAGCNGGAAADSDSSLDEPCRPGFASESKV
SMILES	IC50
C[C@@H]([C@H](O)c1ccccc1)N(C)C	≥ 100 µM
FC(F)(F)c1cccc(C2=CCN(CCc3ccc4ccccc4c3)CC2)c1	≥ 100 µM
CCCNC(C)Cc1ccc2c(c1)OCO2 (centres unmarked)	≥ 100 µM

Single results of other studies
Compound	target	assay	system	setting	measurement	result
Cc1cc(NC(=O)c2cccc(S(F)(F)(F)(F)F)c2)cc(-n2ccn3nc(-c4cccnc4)cc23)c1	EPHB6 (Homo sapiens, UniProt O15197)	target engagement, NanoBRET	live cells	–	EC50	28.8 µM and 38.6 µM and 14.2 µM
CN[C@@H](C)Cc1ccccc1	SLC18A2 (Homo sapiens, UniProt Q05940)	[3H]dopamine uptake, inhibitor	HEK293 hVMAT2 membranes	–	Ki	6.53 ± 0.38 µM
CC(C)(C)c1nc(-c2cccc(NS(=O)(=O)c3c(F)cccc3F)c2F)c(-c2ccnc(N)n2)s1	ARAF (Homo sapiens, UniProt P10398)	kinase–CDC37 interaction, inhibitor	human cells	kinome plate 1@A11	EC50	0.122 µM
NC[C@H](CC(=O)O)c1ccc(Cl)cc1	CAMK2A (Homo sapiens, UniProt Q9UQM7)	enzyme activity, inhibitor	–	10 µM	inhibition	-1%
